Values quoted from earlier work, collected from citations in different studies.
Compare with care: the assays were run in different laboratories. Numbers after ± are the reported error.

SMILES | test | test system | conditions | how to read | endpoint | value
CCC=CCC=CCC=CCC=CCC=CCC=CCCC(=O)OCC(O)COP(=O)([O-])OCC[N+](C)(C)C (stereo not shown) | refers to: docosahexaenoic acid | normal adult mice | dietary, dose not given | baseline: untreated | brain DHA level increase | > 2 fold
O=C([O-])CN1CCN(CC(=O)[O-])CCN(Cc2cccc(C(=O)[O-])n2)CCN(CC(=O)[O-])CC1.[Eu+3] |  | 1 M HCl | 298 K, complex dissociation |  | dissociation rate constant | 0.002 s⁻¹
CC(C)C[C@@H](NC(=O)[C@H](C)NC(=O)CNC(=O)[C@@H](NC=O)C(C)C)C(=O)N[C@@H](C)C(=O)N[C@@H](C(=O)N[C@H](C(=O)N[C@@H](C(=O)N[C@@H](Cc1c[nH]c2ccccc12)C(=O)N[C@H](CC(C)C)C(=O)N[C@@H](Cc1c[nH]c2ccccc12)C(=O)N[C@H](CC(C)C)C(=O)N[C@@H](Cc1c[nH]c2ccccc12)C(=O)N[C@H](CC(C)C)C(=O)N[C@@H](Cc1c[nH]c2ccccc12)C(=O)NCCO)C(C)C)C(C)C)C(C)C | H+/Na+ exchange | EYPC/EYPG liposomes |  |  | EC50 | 4.5 nM
CO[C@@H]1[C@H](O)[C@@H](COP(=O)([O-])OP(=O)(O)CP(=O)(O)OP(=O)(O)OC[C@H]2O[C@@H](n3cnc4c(=O)[nH]c(N)nc43)[C@H](O)[C@@H]2O)O[C@H]1n1c[n+](C)c2c(O)nc(N)nc21 | cap-dependent translation, inhibitor | rabbit reticulocyte lysate | preincubated 60 min in lysate |  | IC50 | 2900 ± 300 nM
C=CC(O)c1ccc(OC)cc1 (stereo not shown) |  | male rat, kidney microsomes |  |  | catalytic efficiency | 4 mL/h/g liver
C=CCC(=N)NCCC[C@H](N)C(=O)O |  | hippocampal slices | 0.1 µM |  | long-term potentiation | decreased
CC1=C(C2=C(C)C(=O)c3c(cc(O)c(O)c3Cc3ccccc3)C2=O)C(=O)c2cc(O)c(O)c(Cc3ccccc3)c2C1=O (racemic) |  | B6 Bcl-2-transgenic mouse | 30 µmol/kg |  | spleen size reduction | 43 ± 4%
[2H]C([2H])([2H])NC(=O)c1ccc(N2C(=S)N(c3ccc(C#N)c(C(F)(F)F)c3)C(=O)C2(C)C)cc1F |  | human, metastatic castration-resistant prostate cancer | dose not given |  | activity | active
NS(=O)(=O)c1ccc(N2N=C(C(F)(F)F)CC2c2ccc(F)cc2F)cc1 (stereo not shown) | PGE2 formation | rat, carrageenan model, gastric mucosa | 40 mg/kg |  | inhibition | 10%
CO[C@@H]1[C@H](O)[C@@H](COP(=O)(O)OP(=O)([O-])OP(=O)(O)OP(=O)(O)OC[C@H]2O[C@@H](n3cnc4c(=O)[nH]c(N)nc43)[C@H](O)[C@@H]2O)O[C@H]1n1c[n+](C)c2c(O)nc(N)nc21 | cap-dependent translation, inhibitor | rabbit reticulocyte lysate | no preincubation |  | IC50 | 2800 ± 200 nM
CCOC(=O)Cc1nc2c(C#N)cnn2c2c1C(C(=O)OCC)C(C(=O)OCC)=C(NC1CCCCC1)O2 (stereo not shown) | free radical scavenging |  |  |  | IC50 | 12100 ± 400 nM
NC(=O)C1(NC(=O)[C@H](Cc2ccccc2)NC(=O)[C@@H](Cc2c[nH]c3ccccc23)NC(=O)[C@@H](Cc2csc3ccccc23)NC(=O)C2CCNCC2)CCNCC1 |  | normal primates | dose not given |  | gastric emptying rate | increased
CC1=CCC23OC2(C)CCC2C(CN(C)C)C(=O)OC2C13.Cl (stereo not shown) |  | Lewis lung carcinoma model | ip and intratumoural, dose not given |  | tumour growth inhibition | 86 to 90%
CN1CCN(C(=O)N(CCCCCCC(=O)NO)c2ccc(-c3ccc4cnn(C)c4c3)cc2)CC1 |  | lymphoma and myeloma patients | dose not given, phase I |  | stable disease or better | 44.4%
Cc1sc(-c2ccc(C(F)(F)F)cc2)nc1-c1nn[nH]c1C#N |  | ZDF rat | dose not given |  | fasting blood glucose | decreased
CC(C)(O)c1ncc([S@](N)(=O)=NC(=O)Nc2c3c(cc4c2CCC4)CCC3)s1 | IL-1β release | human whole blood | plasma concentration, together with: LPS |  | IC90 | 2140 nM
COc1cc(NC(C)=O)c2c(c1O)-c1c(OC)c(OC)cc3c1C(C2)N(C)CC3 (stereo not shown) |  | mouse H22 hepatoma model | oral, 200 mg/kg/day |  | tumour growth inhibition | 52.7%
CC#N.Cc1ccc(O)c(CN(CCN(Cc2ccccn2)Cc2ccccn2)Cc2ccccn2)c1.[Mn+2] |  |  | concentration not given, pH 4.8, water exchange |  | activation enthalpy | 6.31 kcal/mol
CC(=O)N[C@H](CSSC[C@H](N)C(=O)O)C(=O)N[C@H](C)C(=O)N[C@H](CCCNC(=N)N)C(=O)N[C@H](CCCNC(=N)N)C(=O)N[C@H](CCCNC(=N)N)C(=O)N[C@H](C)C(=O)N[C@H](CCCNC(=N)N)C(N)=O |  | 5/6 nephrectomized rat | dose not given |  | plasma PTH level | decreased
C=CC(OC1OC(C(=O)O)C(O)C(O)C1O)c1ccc(OC)cc1 (stereo not shown) |  | male rat, liver | glucuronidation |  | catalytic efficiency | 438 mL/h/g liver
C[n+]1cn([C@@H]2O[C@H](COP(=O)([O-])OP(=O)(O)CP(=O)(O)OP(=O)(O)OC[C@H]3O[C@@H](n4cnc5c(=O)[nH]c(N)nc54)[C@H](O)[C@@H]3O)[C@@H](O)[C@H]2O)c2nc(N)nc(O)c21 | cap-dependent translation, inhibitor | rabbit reticulocyte lysate | no preincubation |  | IC50 | 4600 ± 600 nM
C=CC(OS(=O)(=O)O)c1ccc(OC)cc1 (stereo not shown) |  | human, liver | sulfonation |  | scaled Vmax | 0.06 µmol/h/g liver
Cc1ccc(C(C)C)cc1.O=C(N=P(c1ccccc1)(c1ccccc1)c1ccccc1)c1ccccn1.[Cl-].[Cl][Ru+] |  | mouse, MDA-MB-231 xenograft | 5 mg/kg, 28 days, 14 doses every other day |  | tumour volume reduction | 56%
C[n+]1cn([C@@H]2O[C@H](COP(=O)(O)OP(=O)([O-])OP(=O)(O)OP(=O)(O)OC[C@H]3O[C@@H](n4cnc5c(=O)[nH]c(N)nc54)[C@H](O)[C@@H]3O)[C@@H](O)[C@H]2O)c2nc(N)nc(O)c21 | cap-dependent translation, inhibitor | rabbit reticulocyte lysate | preincubated 60 min in lysate |  | IC50 | > 20000 nM
[2H]c1c(NS(C)(=O)=O)c([2H])c2c(C(=O)c3ccc(OCCCN(CCCC)CCCC)cc3)c(CCCC)oc2c1[2H] |  | dog paroxysmal AF model | dose not given, pacing cycle length 200 ms |  | inter-atrial conduction time prolongation | 13 ms

A few entries again:
SMILES | test | test system | conditions | how to read | endpoint | value
C[n+]1cn([C@@H]2O[C@H](COP(=O)(O)OP(=O)([O-])OP(=O)(O)OP(=O)(O)OC[C@H]3O[C@@H](n4cnc5c(=O)[nH]c(N)nc54)[C@H](O)[C@@H]3O)[C@@H](O)[C@H]2O)c2nc(N)nc(O)c21 | cap-dependent translation, inhibitor | rabbit reticulocyte lysate | preincubated 60 min in lysate |  | IC50 | > 20000 nM
CC(=O)N[C@H](CSSC[C@H](N)C(=O)O)C(=O)N[C@H](C)C(=O)N[C@H](CCCNC(=N)N)C(=O)N[C@H](CCCNC(=N)N)C(=O)N[C@H](CCCNC(=N)N)C(=O)N[C@H](C)C(=O)N[C@H](CCCNC(=N)N)C(N)=O |  | 5/6 nephrectomized rat | dose not given |  | plasma PTH level | decreased
NS(=O)(=O)c1ccc(N2N=C(C(F)(F)F)CC2c2ccc(F)cc2F)cc1 (stereo not shown) | PGE2 formation | rat, carrageenan model, gastric mucosa | 40 mg/kg |  | inhibition | 10%
NC(=O)C1(NC(=O)[C@H](Cc2ccccc2)NC(=O)[C@@H](Cc2c[nH]c3ccccc23)NC(=O)[C@@H](Cc2csc3ccccc23)NC(=O)C2CCNCC2)CCNCC1 |  | normal primates | dose not given |  | gastric emptying rate | increased
